Measured values pooled from the literature.
Parts stem from different laboratories: compare values within a part only.
Sequence of UniProt Q9UF33 (whole entry, looked up): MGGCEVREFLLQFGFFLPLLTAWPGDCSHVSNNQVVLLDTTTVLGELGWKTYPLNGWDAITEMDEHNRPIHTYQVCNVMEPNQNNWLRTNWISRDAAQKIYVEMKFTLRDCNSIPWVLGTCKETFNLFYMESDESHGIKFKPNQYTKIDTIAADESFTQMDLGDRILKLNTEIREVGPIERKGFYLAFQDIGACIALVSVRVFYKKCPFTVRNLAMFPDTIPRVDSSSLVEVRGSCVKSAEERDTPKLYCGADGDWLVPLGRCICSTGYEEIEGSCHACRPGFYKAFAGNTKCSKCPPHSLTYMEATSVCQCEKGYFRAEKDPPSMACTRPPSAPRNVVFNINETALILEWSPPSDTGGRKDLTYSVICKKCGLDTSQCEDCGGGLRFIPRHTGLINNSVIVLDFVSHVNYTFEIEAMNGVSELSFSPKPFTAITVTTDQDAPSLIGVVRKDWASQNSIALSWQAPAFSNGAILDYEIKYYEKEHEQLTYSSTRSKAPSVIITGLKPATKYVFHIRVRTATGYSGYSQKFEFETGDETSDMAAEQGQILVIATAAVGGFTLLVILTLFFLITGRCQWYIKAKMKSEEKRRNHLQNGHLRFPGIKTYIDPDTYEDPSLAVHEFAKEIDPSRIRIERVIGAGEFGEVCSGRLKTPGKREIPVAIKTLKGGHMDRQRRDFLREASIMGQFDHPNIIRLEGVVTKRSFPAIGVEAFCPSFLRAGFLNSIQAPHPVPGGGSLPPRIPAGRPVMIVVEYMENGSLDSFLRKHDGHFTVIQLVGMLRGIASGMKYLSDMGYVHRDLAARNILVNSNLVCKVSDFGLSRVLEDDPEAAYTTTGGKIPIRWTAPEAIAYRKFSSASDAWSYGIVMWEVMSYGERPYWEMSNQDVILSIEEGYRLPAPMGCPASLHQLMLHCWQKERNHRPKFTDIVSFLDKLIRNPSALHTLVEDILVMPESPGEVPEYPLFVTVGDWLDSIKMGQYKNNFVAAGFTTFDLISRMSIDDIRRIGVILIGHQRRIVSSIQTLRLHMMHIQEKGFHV
Sequence of UniProt Q9UBS0 (whole entry, looked up): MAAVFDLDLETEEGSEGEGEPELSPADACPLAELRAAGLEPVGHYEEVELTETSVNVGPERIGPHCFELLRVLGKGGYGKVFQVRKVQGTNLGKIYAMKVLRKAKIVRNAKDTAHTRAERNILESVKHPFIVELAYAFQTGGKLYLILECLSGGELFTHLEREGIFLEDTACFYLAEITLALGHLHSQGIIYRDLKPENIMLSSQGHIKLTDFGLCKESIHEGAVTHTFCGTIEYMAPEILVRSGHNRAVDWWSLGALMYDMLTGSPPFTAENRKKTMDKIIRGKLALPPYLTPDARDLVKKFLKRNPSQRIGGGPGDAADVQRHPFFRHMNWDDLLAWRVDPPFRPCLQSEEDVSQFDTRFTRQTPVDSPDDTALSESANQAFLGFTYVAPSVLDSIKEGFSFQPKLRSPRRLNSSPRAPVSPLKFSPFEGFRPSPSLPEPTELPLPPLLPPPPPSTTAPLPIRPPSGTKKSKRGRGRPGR
Sequence of UniProt Q6PHR2 (whole entry, looked up): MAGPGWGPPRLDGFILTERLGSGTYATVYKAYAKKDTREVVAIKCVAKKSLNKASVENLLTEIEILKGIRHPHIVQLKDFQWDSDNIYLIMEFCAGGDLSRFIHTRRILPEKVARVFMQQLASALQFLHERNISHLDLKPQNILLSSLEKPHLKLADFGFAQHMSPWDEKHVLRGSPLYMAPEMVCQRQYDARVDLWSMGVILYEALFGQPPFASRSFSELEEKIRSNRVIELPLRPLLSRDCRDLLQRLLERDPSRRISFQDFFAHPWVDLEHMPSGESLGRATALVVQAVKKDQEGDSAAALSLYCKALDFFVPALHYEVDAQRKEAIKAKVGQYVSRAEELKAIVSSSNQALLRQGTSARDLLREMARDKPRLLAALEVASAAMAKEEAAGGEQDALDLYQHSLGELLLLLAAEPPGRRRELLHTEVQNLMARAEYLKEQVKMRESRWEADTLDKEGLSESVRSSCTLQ
Sequence of UniProt Q6P2M8 (whole entry, looked up): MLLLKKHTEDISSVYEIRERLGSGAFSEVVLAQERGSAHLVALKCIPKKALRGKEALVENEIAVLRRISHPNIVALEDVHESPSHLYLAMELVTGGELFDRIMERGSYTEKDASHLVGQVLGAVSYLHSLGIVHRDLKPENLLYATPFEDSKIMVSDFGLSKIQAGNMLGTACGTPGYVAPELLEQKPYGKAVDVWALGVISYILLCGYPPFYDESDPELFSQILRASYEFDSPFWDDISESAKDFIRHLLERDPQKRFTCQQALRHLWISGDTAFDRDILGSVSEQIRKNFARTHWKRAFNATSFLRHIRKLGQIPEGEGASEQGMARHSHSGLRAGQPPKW
Sequence of UniProt P22612 (whole entry, looked up): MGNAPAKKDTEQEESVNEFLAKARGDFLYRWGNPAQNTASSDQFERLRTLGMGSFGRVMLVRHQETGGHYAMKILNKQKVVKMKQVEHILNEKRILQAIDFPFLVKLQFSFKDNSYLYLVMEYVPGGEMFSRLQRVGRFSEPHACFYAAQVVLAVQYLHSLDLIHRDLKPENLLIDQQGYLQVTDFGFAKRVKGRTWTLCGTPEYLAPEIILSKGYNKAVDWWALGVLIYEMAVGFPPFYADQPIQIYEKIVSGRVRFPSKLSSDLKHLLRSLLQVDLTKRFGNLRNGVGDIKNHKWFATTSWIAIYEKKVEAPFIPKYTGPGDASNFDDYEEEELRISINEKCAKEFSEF
Sequence of UniProt Q6XUX3 (whole entry, looked up): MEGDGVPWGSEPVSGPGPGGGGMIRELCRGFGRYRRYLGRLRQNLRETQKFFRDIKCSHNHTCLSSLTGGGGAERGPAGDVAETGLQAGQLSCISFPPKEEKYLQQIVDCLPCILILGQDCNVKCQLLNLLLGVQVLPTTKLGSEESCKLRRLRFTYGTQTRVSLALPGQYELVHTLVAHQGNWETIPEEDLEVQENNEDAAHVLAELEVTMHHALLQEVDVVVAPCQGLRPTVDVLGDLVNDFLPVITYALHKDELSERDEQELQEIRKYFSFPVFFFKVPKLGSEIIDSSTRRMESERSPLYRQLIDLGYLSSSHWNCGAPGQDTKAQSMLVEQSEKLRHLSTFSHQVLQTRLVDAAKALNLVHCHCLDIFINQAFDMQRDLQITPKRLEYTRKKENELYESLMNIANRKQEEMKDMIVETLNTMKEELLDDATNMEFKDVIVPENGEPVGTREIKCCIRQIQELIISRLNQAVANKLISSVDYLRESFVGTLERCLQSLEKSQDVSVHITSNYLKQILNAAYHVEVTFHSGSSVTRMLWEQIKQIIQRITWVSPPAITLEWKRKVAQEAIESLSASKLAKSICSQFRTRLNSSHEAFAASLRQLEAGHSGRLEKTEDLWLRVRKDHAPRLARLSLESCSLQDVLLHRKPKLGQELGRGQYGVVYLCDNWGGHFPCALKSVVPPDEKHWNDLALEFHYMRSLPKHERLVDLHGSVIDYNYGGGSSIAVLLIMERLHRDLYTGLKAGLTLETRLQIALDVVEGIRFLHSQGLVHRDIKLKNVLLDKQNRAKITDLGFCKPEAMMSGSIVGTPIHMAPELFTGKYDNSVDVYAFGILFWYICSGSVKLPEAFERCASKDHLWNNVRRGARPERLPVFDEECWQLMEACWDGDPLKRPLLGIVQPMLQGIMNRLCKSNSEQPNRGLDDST
Sequence of UniProt Q8WXR4 (whole entry, looked up): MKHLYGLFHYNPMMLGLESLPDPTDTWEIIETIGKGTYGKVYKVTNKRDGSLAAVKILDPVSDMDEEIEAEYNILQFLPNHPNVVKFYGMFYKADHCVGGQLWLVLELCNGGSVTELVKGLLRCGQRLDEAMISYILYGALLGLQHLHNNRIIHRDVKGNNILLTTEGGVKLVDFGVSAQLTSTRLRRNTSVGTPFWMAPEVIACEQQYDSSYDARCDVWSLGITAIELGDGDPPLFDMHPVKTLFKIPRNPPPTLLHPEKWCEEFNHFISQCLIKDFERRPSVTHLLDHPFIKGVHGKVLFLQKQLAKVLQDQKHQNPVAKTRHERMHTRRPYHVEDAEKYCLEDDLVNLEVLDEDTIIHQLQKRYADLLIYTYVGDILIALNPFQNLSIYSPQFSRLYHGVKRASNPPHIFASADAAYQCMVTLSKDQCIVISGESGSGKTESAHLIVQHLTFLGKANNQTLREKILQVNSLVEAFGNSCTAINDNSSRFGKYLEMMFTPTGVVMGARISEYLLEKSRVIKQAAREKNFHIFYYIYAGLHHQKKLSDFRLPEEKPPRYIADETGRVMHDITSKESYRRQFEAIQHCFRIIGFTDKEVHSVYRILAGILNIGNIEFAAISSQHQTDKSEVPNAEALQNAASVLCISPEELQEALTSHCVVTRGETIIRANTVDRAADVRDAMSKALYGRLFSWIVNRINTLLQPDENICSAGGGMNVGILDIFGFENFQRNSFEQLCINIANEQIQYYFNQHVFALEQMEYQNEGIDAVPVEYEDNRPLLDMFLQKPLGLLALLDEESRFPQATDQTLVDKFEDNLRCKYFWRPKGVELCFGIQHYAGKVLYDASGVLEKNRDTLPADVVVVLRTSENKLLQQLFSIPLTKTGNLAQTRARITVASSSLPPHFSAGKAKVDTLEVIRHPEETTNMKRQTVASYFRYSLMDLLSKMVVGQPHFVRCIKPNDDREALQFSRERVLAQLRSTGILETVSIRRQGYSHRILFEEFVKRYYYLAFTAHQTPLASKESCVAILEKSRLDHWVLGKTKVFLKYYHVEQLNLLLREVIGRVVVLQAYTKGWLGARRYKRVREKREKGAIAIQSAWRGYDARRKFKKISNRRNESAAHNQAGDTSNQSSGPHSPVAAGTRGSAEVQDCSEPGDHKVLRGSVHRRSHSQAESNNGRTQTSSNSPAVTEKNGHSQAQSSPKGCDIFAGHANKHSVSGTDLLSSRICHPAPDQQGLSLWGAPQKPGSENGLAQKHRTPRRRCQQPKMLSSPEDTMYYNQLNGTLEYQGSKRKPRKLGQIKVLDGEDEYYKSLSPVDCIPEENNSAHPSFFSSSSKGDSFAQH

Study 1
Host: human
Matrix: microsomes or S9
Concentration: 2 µM
Time: 0.5 h
The remaining compound of `COC(=O)c1ccc(C2NN(C)C3C(=O)N(C(C)C)C(=O)C23)cc1` (stereo not shown) is reported as 84%.
`CC(C)(C)CNCCn1c(=S)[nH]c2c(Cl)nccc21` gave a remaining compound of 97.2%.
With `OC1(Cc2nc(-c3cnccn3)no2)CCCCC1` the remaining compound was 87.8%.
For `Cc1nn(C)c(C)c1S(=O)(=O)Nc1ccc(-n2nn[nH]c2=O)cc1`, the remaining compound was 82%.
With `Cc1ccc(C(=O)Cn2nc3n(Cc4ccccc4)c(=O)c4ccc(C(=O)NC(C)C)cc4n3c2=O)cc1` the remaining compound was greater than 99%.
For `O=c1[nH]nc2c3scc(-c4ccc(F)cc4)c3ncn12`, the remaining compound was 95.7%.
For `Clc1ncccc1-c1nc2cc3c(cc2c2ccnn12)OCO3`, the remaining compound was 55.2%.
With `Cc1oc(-c2[nH]ncc2C(=O)N(C)C)cc1S(=O)(=O)NCCCN(C)C` the remaining compound was 81.2%.
`CC(C)CN1C(=O)C2C3CC4C5(C)CCCC(C)(C(=O)O)C5CCC4(C=C3C(C)C)C2C1=O` (stereo not shown) has a remaining compound of 74.9%.

Study 2
Compound: O=C1NC(=O)c2cc(Nc3ccc(F)cc3)c(Nc3ccc(F)cc3)cc21
Observed: cell-free assay
Concentration: 0.5 µM
For NUAK2 (Homo sapiens, UniProt Q9H093): remaining signal read 112%.
For PRKACG (Homo sapiens, UniProt P22612): remaining signal read 101%.
CAMK1G (Homo sapiens, UniProt Q96NX5) — remaining signal: 106%.
For ULK3 (Homo sapiens, UniProt Q6PHR2): remaining signal read 96.3%.
For RPS6KB2 (Homo sapiens, UniProt Q9UBS0): remaining signal read 93.9%.
The remaining signal was 95.6% (DSTYK (Homo sapiens, UniProt Q6XUX3)).
For PBK (Homo sapiens, UniProt Q96KB5): remaining signal read 88.4%.
VRK1 (Homo sapiens, UniProt Q99986) — remaining signal: 93%.
The remaining signal was 98.2% (Myosin-IIIb (MYO3B, Homo sapiens, UniProt Q8WXR4)).
The remaining signal was 117% (MAP3K14 (Homo sapiens, UniProt Q99558)).
PNCK (Homo sapiens, UniProt Q6P2M8) — remaining signal: 97.3%.
EPHA6 (Homo sapiens, UniProt Q9UF33) — remaining signal: 66.8%.

Study 3
SMILES: CC(C)n1cnc(-c2ccc(F)cc2)c1-c1ncc(C(=O)Nc2ccc(N3CCN(C)CC3)cc2)[nH]1
The “patients with adverse event” was 0% (measured: abnormal liver function test, grade 3; idiopathic pulmonary fibrosis patients; oral, 30 mg once daily).
measured: any adverse event, grade 4; idiopathic pulmonary fibrosis patients; oral, 60 mg once daily — “patients with adverse event”: 0%.
It gave 0% for “patients with adverse event” (measured: ALT increase; patients with idiopathic pulmonary fibrosis; 30 mg twice daily, trial, together with: standard of care therapy).
For measured: any adverse event, grade 5; idiopathic pulmonary fibrosis patients; oral, 60 mg once daily: “patients with adverse event” read 0%.
For Phase 2a trial, measured: haemoptysis; human, idiopathic pulmonary fibrosis; all compound arms, grade 5: “patients with adverse event” read 0%.

Study 4
Organism: Sarcocystis neurona
Observed: parasite growth
Concentration: 10 µM
Time: 96 h
Relative to: untreated
Under “log2 fold change”, `CCCc1nc(C(C)(C)O)c(C(=O)OCc2oc(=O)oc2C)n1Cc1ccc(-c2ccccc2-c2nnn[nH]2)cc1` is recorded as -0.0548.
`COC(=O)C1=C(C)NC(C)=C(C(=O)OCCN(C)Cc2ccccc2)C1c1cccc([N+](=O)[O-])c1` (stereo not shown): “log2 fold change” 0.4.
Under “log2 fold change”, `Cc1c2oc3c(C)ccc(C(=O)N[C@@H]4C(=O)N[C@H](C(C)C)C(=O)N5CCC[C@H]5C(=O)N(C)CC(=O)N(C)[C@@H](C(C)C)C(=O)O[C@@H]4C)c3nc-2c(C(=O)N[C@@H]2C(=O)N[C@H](C(C)C)C(=O)N3CCC[C@H]3C(=O)N(C)CC(=O)N(C)[C@@H](C(C)C)C(=O)O[C@@H]2C)c(N)c1=O` is recorded as -0.18.
Under “log2 fold change”, `CC(C)(C)NC(=O)[C@H]1CC[C@H]2[C@@H]3CC[C@H]4NC(=O)C=C[C@]4(C)[C@H]3CC[C@]12C` is recorded as -0.55.

Other studies, line by line
`Cn1cncc1[C@](O)(COc1ccc(C#N)cc1-c1ccc(OC(F)(F)F)cc1)c1ccc(C#N)cc1` has a viability of 43.6% (patient-derived normal-adjacent epithelium organoids; 1 µM; relative to: DMSO control).

A few entries again (study 4):
`COC(=O)C1=C(C)NC(C)=C(C(=O)OCCN(C)Cc2ccccc2)C1c1cccc([N+](=O)[O-])c1` (stereo not shown): “log2 fold change” 0.4.
Under “log2 fold change”, `Cc1c2oc3c(C)ccc(C(=O)N[C@@H]4C(=O)N[C@H](C(C)C)C(=O)N5CCC[C@H]5C(=O)N(C)CC(=O)N(C)[C@@H](C(C)C)C(=O)O[C@@H]4C)c3nc-2c(C(=O)N[C@@H]2C(=O)N[C@H](C(C)C)C(=O)N3CCC[C@H]3C(=O)N(C)CC(=O)N(C)[C@@H](C(C)C)C(=O)O[C@@H]2C)c(N)c1=O` is recorded as -0.18.
Under “log2 fold change”, `CC(C)(C)NC(=O)[C@H]1CC[C@H]2[C@@H]3CC[C@H]4NC(=O)C=C[C@]4(C)[C@H]3CC[C@]12C` is recorded as -0.55.
